Measurements pooled from the literature.
Each line is one published result; not all experiments were run side by side. ± gives the spread as reported. Values after ≈ are worked out from the molar mass of the structure shown. Where no end group is shown, it is not given here.

Substance	target or system	test	system	conditions	scale	quantity	result
CC(=O)OC[C@]12Oc3ccc(-c4ccc(O)c5c4O[C@@]4(COC(C)=O)C(=C(O)C[C@@H](C)[C@H]4OC(C)=O)C5=O)c(O)c3C(=O)C1=C(O)C[C@@H](C)[C@H]2OC(C)=O	Phyllosticta citricarpa		Citrus sinensis leaf discs	10000 µg/mL, 504 h, methanol solution		pycnidia count	73 ± 6
LSTFFRLFNRSFTQGRRRRSVQWCA	Streptococcus gordonii	OD600	peptide, ATCC 10558, 4 h single-species biofilm	128 µg/ml, 5 min exposure, OD600 read over 5 h		biofilm growth	no effect
CC[C@H](C)[C@H](NC(=O)[C@H](CCCCN)NC(=O)[C@H](CCC(=O)O)NC(=O)[C@H](CCCCN)NC(=O)[C@H](CO)NC(=O)[C@H](CCCCN)NC(=O)[C@H](CCCNC(=N)N)NC(=O)[C@H](Cc1ccccc1)NC(=O)[C@H](Cc1ccccc1)NC(=O)[C@H](CC(=O)O)NC(=O)CNC(=O)[C@H](CC(C)C)NC(=O)[C@@H](N)CC(C)C)C(=O)NCC(=O)N[C@@H](CCCCN)C(=O)N[C@@H](CCC(=O)O)C(=O)N[C@@H](Cc1ccccc1)C(=O)N[C@@H](CCCCN)C(=O)N[C@@H](CCCNC(=N)N)C(=O)N[C@H](C(=O)N[C@H](C(=O)N[C@@H](CCC(N)=O)C(=O)N[C@@H](CCCNC(=N)N)C(=O)N[C@H](C(=O)N[C@@H](CCCCN)C(=O)N[C@@H](CC(=O)O)C(=O)N[C@@H](Cc1ccccc1)C(=O)N[C@@H](CC(C)C)C(=O)N[C@@H](CCCNC(=N)N)C(=O)N[C@@H](CC(N)=O)C(=O)N[C@@H](CC(C)C)C(=O)N[C@H](C(=O)N1CCC[C@H]1C(=O)N[C@@H](CCCNC(=N)N)C(=O)N[C@H](C(=O)N[C@@H](CCC(=O)O)C(=O)N[C@@H](CO)C(=O)O)[C@@H](C)O)C(C)C)[C@@H](C)CC)C(C)C)[C@@H](C)CC	Staphylococcus aureus		JE2 SAUSA300_1465 transposon mutant	12.5% TSB	relative to: wild type over mutant	MIC ratio	10 fold
OCCn1c(Cl)nc2cc(Br)c(Br)cc21	Human immunodeficiency virus 1	viral replication, inhibitor	TZM-bl	1 µg/mL		inhibition	14.9%
CC[C@H](C)[C@H](NC(=O)[C@H](CC(C)C)NC(=O)[C@H](Cc1c[nH]cn1)NC(=O)[C@H](Cc1c[nH]cn1)NC(=O)[C@@H](NC(=O)[C@H](Cc1ccccc1)NC(=O)[C@H](Cc1c[nH]cn1)NC(=O)[C@H](Cc1c[nH]c2ccccc12)NC(=O)[C@@H](NC(=O)[C@H](Cc1c[nH]cn1)NC(=O)[C@H](Cc1c[nH]cn1)NC(=O)[C@H](Cc1c[nH]c2ccccc12)NC(=O)[C@@H](N)CC(C)C)[C@@H](C)CC)C(C)C)C(N)=O	herpes simplex virus 1	extracellular virus, plaque	Vero, F	concentration not given, 24 h post-infection, added after entry		infectivity reduction	81.9%
CCCCCOc1c(OC)cc(NC(C)CCCN)c2nc(C(C)(C)C)ccc12 (stereo not shown)	Staphylococcus aureus	microbial killing	ATCC33591 MRSA	drug-resistant strain		MBC	> 20 µg/mL
O=C(CN1c2c(n[nH]c2-c2cccc(Cl)c2)-c2ccccc2S1(=O)=O)NN=Cc1ccc(Cl)cc1	HIV-1	viral replication	PBMC			EC90	27.1 µM
TDVDHVFLRF-OH (C-acid)	Drosophila melanogaster	heart rate	peptide, adult heart	40 nL injected, 1 µM, 10 min	relative to: DMS	inhibition	30%
CN[C@@](C)(C[18F])C(=O)O			SCID mouse SK-OV-3 xenograft, pancreas	60 min, post injection		tissue uptake	21 ± 2.3 %ID/g
CC(C)C[C@H](NC(=O)[C@H](C)NC(=O)[C@H](CC(C)C)NC(=O)[C@H](CCCCN)NC(=O)[C@H](CCCCN)NC(=O)[C@H](Cc1c[nH]c2ccccc12)NC(=O)[C@H](CC(C)C)NC(=O)[C@@H]1CCCN1C(=O)[C@H](C)NC(=O)[C@H](CC(C)C)NC(=O)[C@H](CCCCN)NC(=O)[C@H](CCCCN)NC(=O)[C@H](CC(C)C)NC(=O)[C@H](C)NC(=O)[C@H](CC(C)C)NC(=O)[C@H](C)NC(=O)[C@H](CC(C)C)NC(=O)[C@H](CCCCN)NC(=O)[C@@H](N)CCCCN)C(=O)N[C@@H](C)C(=O)N[C@@H](CC(C)C)C(=O)N[C@@H](CCCCN)C(=O)N[C@@H](CCCCN)C(=O)N[C@@H](C)C(N)=O	Pseudomonas aeruginosa	broth microdilution	PAO1	overnight, 37 °C		MIC50	2.14 ± 0.53 µM (≈ 5.69 µg/mL)
CCCCCCCCOc1c(OC)cc(NC(C)CCCN)c2nc(C(C)(C)C)ccc12 (stereo not shown)	Staphylococcus aureus	microbial killing	ATCC33591 MRSA	drug-resistant strain		MBC	20 µg/mL (≈ 45.1 µM)
O=C(CN1c2c(n[nH]c2-c2cccc(Cl)c2)-c2ccccc2S1(=O)=O)NN=Cc1ccc([N+](=O)[O-])cc1	HIV-1	viral replication	PBMC			EC90	20.4 µM
CC(=NNC(=O)CN1c2c(-c3ccccc3)n[nH]c2-c2ccccc2S1(=O)=O)c1cc2ccccc2oc1=O	HIV-1	viral replication	PBMC			EC90	85.6 µM
VDHVFLRF-NH2 (C-amide)	Drosophila melanogaster	gut contraction	adult gut	1 µM, within 10 min	relative to: DMS effect	inhibition	100%
CCCCCCOc1c(OC)cc(NC(C)CCCN)c2nc(C(C)(C)C)ccc12 (stereo not shown)	Staphylococcus aureus	microbial growth	ATCC33591 MRSA	drug-resistant strain		IC50	2.77 µg/mL (≈ 6.66 µM)
CC(=NNC(=O)CN1c2c(-c3ccccc3)n[nH]c2-c2ccccc2S1(=O)=O)c1ccc2c(c1)OCCO2	HIV-1	viral replication	PBMC			EC90	> 100 µM

Substance	target or system	test	system	conditions	scale	quantity	result
CC(=O)c1c(O)c(C)c(O)c2c1OC1=CC(=O)C(=C(C)N[C@@H](CCCNC(=N)N)C(=O)O)C(=O)[C@]12C	Candida tropicalis	broth microdilution	ATCC 750 fluconazole and amphotericin B resistant	24 and 48 h		MIC99	24 µM (≈ 12 µg/mL)
CCCCCCCOc1c(OC)cc(NC(C)CCCNC(=O)C(N)Cc2ccccc2)c2nc(C(C)(C)C)ccc12 (stereo not shown)	Staphylococcus aureus	microbial killing	ATCC33591 MRSA	drug-resistant strain		MBC	20 µg/mL (≈ 34.7 µM)
TAVDHVFLRF-NH2 (C-amide)	Drosophila melanogaster	heart rate	adult heart	40 nL injected, 1 µM, 10 min	relative to: DMS	inhibition	95%
TFFRLFNRGRRRRSVQWCA	Streptococcus sanguis	OD600	peptide, ATCC 49295, 4 h single-species biofilm	128 µg/ml, 5 min exposure, OD600 read over 5 h		biofilm growth	no effect
Cc1ccnc2c1NC(=O)c1cccnc1N2C1CC1	Human immunodeficiency virus 1	viral replication	human PBMC	6 days		IC90	0.18 µM
Cc1ccccc1-c1nc(CN2CCC(C(=O)NCC3CCCO3)CC2)c(C)o1 (stereo not shown)	Hepatitis C virus	HCV infection, Gaussia luciferase reporter	Huh7.5.1 reporter cells		relative to: 10 µM cyclosporin A, DMSO, negative means inhibition	maximal response	-23.2%
WRWWWW-NH2 (C-amide)	Staphylococcus aureus USA300		peptide, female BALB/c mouse, peritonitis model	intraperitoneal, 7.5 mg/kg, 2 h after infection, given 20 min before infection		peritoneal neutrophil influx	inhibited
CP(=O)(O)CCC(N)C(=O)O (stereo not shown)	Chenopodium album			125 g/ha, 13 days, CHEAL, post-emergence spray	relative to: untreated (0%), complete kill (100%)	herbicidal activity	70%
O=C/C=C/c1ccccc1	Candida tropicalis		MTCC 230	1000 µg/mL, 18 h		zone of inhibition	11 mm
CCCCOc1c(OC)cc(NC(C)CCCNC(=O)C(N)CCCCN)c2nc(C(C)(C)C)ccc12 (stereo not shown)	Staphylococcus aureus	bacterial growth	MRSA ATCC 33591			IC50	> 20 µg/mL
Cc1oc(-c2ccc(Cl)cc2)nc1CN1CCCC(C(=O)NCCCN2CCCC2=O)C1 (stereo not shown)	Hepatitis C virus	HCV infection, Gaussia luciferase reporter	Huh7.5.1 reporter cells		relative to: 10 µM cyclosporin A, DMSO, negative means inhibition	maximal response	-64.8%
DGEA	rhesus rotavirus		peptide, mouse cholangiocytes, Hsc70 siRNA	1 mM	relative to: serum-free control	viral replication	inhibited
CCCCCCCOc1c(OC)cc(NC(C)CCCN)c2nc(C(C)(C)C)cc(C)c12 (stereo not shown)	Staphylococcus aureus	microbial growth	ATCC33591 MRSA	drug-resistant strain		IC50	1.38 µg/mL (≈ 3.11 µM)
TRTRVSRLY	rhesus rotavirus		peptide, newborn BALB/c mice, RRV biliary atresia	intraperitoneal, 500 µg at birth and days 1 and 2, 21 days		mortality	26.3%
COc1cc(C2OCOCC2C)ccc1O (stereo not shown)	Spodoptera frugiperda	insecticidal activity	larvae	topical		LD50	4240 mg/kg

Some of these lines once more:
Substance	target or system	test	system	conditions	scale	quantity	result
CCCCOc1c(OC)cc(NC(C)CCCNC(=O)C(N)CCCCN)c2nc(C(C)(C)C)ccc12 (stereo not shown)	Staphylococcus aureus	bacterial growth	MRSA ATCC 33591			IC50	> 20 µg/mL
Cc1oc(-c2ccc(Cl)cc2)nc1CN1CCCC(C(=O)NCCCN2CCCC2=O)C1 (stereo not shown)	Hepatitis C virus	HCV infection, Gaussia luciferase reporter	Huh7.5.1 reporter cells		relative to: 10 µM cyclosporin A, DMSO, negative means inhibition	maximal response	-64.8%
DGEA	rhesus rotavirus		peptide, mouse cholangiocytes, Hsc70 siRNA	1 mM	relative to: serum-free control	viral replication	inhibited
